Measured values of several laboratories.
Each line is one published result; not all experiments were run side by side. Numbers after ± are the reported error.

Compound | species | medium | route | dose | reference | oral bioavailability [%]
COc1ccc(NC(=O)N2CCCCN3[C@H](CO)[C@H](c4ccc(C#Cc5ccccc5)cc4)[C@@H]3C2)cc1 | CD-1 mouse |  | oral | dose not given |  | 86
O=[N+]([O-])c1ccc(-c2ccc(O)cc2)c2cccnc12 | male ICR mouse |  | oral | 5 mg/kg | intravenous 1 mg/kg | 4.75
COc1ccc(NC(=O)N2CCCCN3[C@H](CN(C)S(C)(=O)=O)[C@H](c4ccc(C#Cc5ccccc5)cc4)[C@@H]3C2)cc1 | CD-1 mouse |  | oral | dose not given |  | 78
COc1cc2c3c(n(CCCNC(C)C)c(=O)c2cc1OC)-c1nc2c(cc1C3=O)OCO2 | male CD1 mouse |  | oral | 10 mg/kg | 1 mg/kg intravenous | 41.9
CC(=O)N(C)C1CCN(c2cc(F)cc(NC(=O)c3cc4c(F)ccc(C)c4[nH]3)c2)C1 (stereo not drawn) | CD1 mouse |  | oral | 50 mg/kg |  | 0.425
COc1cc2c3c(n(CCCNCCO)c(=O)c2cc1OC)-c1nc2c(cc1C3=O)OCO2 | male CD1 mouse |  | oral | 10 mg/kg | 1 mg/kg intravenous | 1.19
CN(C)C(=O)c1cc2cnc(Nc3ccc(-c4ccc5c(=O)cc(N6CCOCC6)oc5c4)cc3)nc2n1C1CCCC1.Cl | Balb/c mouse |  | oral | 20 mg/kg | intravenous 2 mg/kg | 28.9 ± 7.9
COc1ccc(C(O)COc2ccc(-c3csc(-c4ccc(OCC(O)c5ccc(OC)c(OC)c5)cc4)n3)cc2)cc1OC (stereo not drawn) | C57BL/6J mouse | plasma | oral | 10 mg/kg |  | 63.8
O=C(NO)c1ccc(CN(c2cnccn2)c2cnccn2)cc1 | mouse |  |  |  |  | 15
CO[C@H]1/C=C/O[C@@]2(C)Oc3c(C)c(O)c4c(c3C2=O)C2=NC3(CCN(CC(C)C)CC3)NC2=C(NC(=O)/C(C)=C\C=C\[C@H](C)[C@H](O)[C@@H](C)[C@@H](O)[C@@H](C)[C@H](OC(C)=O)[C@@H]1C)C4=O | CD-1 mouse female |  | oral | 10 mg/kg |  | 69
C[C@@H]1CN(Cc2ncccn2)C[C@H]1c1nc2c(cnn2C2CCOCC2)c(=O)[nH]1 | mouse |  | oral | 1 mg/kg |  | 67
O=c1c2cc(Cl)c(CO)cc2[nH]c(=S)n1Cc1cccnc1 | mouse |  | oral | 10 mg/kg |  | 1.3

For quick reference, copied from above:
Compound | species | medium | route | dose | reference | oral bioavailability [%]
COc1cc2c3c(n(CCCNC(C)C)c(=O)c2cc1OC)-c1nc2c(cc1C3=O)OCO2 | male CD1 mouse |  | oral | 10 mg/kg | 1 mg/kg intravenous | 41.9
CC(=O)N(C)C1CCN(c2cc(F)cc(NC(=O)c3cc4c(F)ccc(C)c4[nH]3)c2)C1 (stereo not drawn) | CD1 mouse |  | oral | 50 mg/kg |  | 0.425
